Experimental data pooled from the literature.
Numbered parts are unrelated; each lists some results of a single study. Substitutions count along the parent as printed.

Sample 1
Target: CCNB2, cyclin fold, Cln2 fusion (human)
Method: yeast growth competition, sequencing
Medium: yeast
Setting: weak parent motif
Reference: not given
Direction: higher = stronger binding
Endpoint: normalised enrichment score
Starting sequence: WEE1 docking peptide (human); CTLRQKLIFSPCS
P11A: 0.563
Q5A: 0.54
F9A: 0.109
L3A: 0.239
S13A: 0.689
L7A: 0.229

Sample 2
Target: CREB5, bZIP domain (human)
Method: DHFR protein complementation
Medium: yeast
Setting: single substitutions, most at no-binding floor
Reference: wild-type JUN-FOS pair
Direction: higher = stronger binding
Endpoint: binding fitness
Starting sequence: JUN, bZIP domain (human); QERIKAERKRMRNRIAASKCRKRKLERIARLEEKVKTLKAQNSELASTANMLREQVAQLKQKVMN; partner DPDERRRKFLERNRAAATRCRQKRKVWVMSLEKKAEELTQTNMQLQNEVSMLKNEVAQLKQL
R30F: -0.271 natural log
L31D: -1.31 natural log
R53T: -1.11 natural log
L38G: -1.33 natural log
S43K: -0.117 natural log
K34F: -0.676 natural log
L59R: -1.38 natural log
T48P: -1.38 natural log
L59Q: -1.16 natural log
T48W: -0.765 natural log
A40C: -0.501 natural log
T48L: -0.252 natural log
E54P: -1.38 natural log
E33K: -0.512 natural log
E33D: -0.295 natural log

Sample 3
Target: Protein C-ets-1 (ETS1, Homo sapiens, UniProt P14921, residues 1-441, full length assumed)
UniProt P14921, sequence (whole entry, looked up): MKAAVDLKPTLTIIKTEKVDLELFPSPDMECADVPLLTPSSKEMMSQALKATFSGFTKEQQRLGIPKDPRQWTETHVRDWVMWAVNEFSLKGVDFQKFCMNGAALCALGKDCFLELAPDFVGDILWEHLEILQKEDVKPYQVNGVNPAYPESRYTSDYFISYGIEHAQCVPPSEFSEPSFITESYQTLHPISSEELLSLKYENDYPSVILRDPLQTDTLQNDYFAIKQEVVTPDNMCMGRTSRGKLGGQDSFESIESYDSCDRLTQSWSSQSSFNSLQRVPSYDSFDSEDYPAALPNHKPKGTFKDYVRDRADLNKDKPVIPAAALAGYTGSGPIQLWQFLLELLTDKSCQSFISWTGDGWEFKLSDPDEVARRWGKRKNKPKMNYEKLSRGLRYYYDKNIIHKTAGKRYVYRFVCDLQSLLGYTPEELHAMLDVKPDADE
Method: protein-binding microarray
Molecule type: double-stranded DNA, one strand shown
Medium: in vitro
Tested at: not given
Setting: k-mer, scored over probes, only values ≥0.25
Direction: higher = stronger binding
Endpoint: E-score
GCCGGAAA: 0.487
AGGGAAAT: 0.275
TTACGGAA: 0.34
CGACCGGA: 0.464
CAGCATCC: 0.402
GGATGTAC: 0.375
GCAACGGA: 0.323
TCCGGACA: 0.419
CTTCCGAA: 0.346
ACCCCGCC: 0.311
GATCCGGC: 0.362
CTTCCTAA: 0.291
ATCCTGTA: 0.373
TCGTGGAA: 0.262
AACTTTCC: 0.309
GATTCCGC: 0.29
AGTCGGAT: 0.287
AGGAAGAC: 0.365
AGATTCCG: 0.296
GTAGGAGA: 0.255
GATGTGGA: 0.278
GTACAGGA: 0.37
TCAGGAAA: 0.401

Sample 4
Target: Ras GTPase-activating protein-binding protein 1, full length (G3BP1, Homo sapiens, UniProt Q13283)
UniProt Q13283, sequence (whole entry, looked up): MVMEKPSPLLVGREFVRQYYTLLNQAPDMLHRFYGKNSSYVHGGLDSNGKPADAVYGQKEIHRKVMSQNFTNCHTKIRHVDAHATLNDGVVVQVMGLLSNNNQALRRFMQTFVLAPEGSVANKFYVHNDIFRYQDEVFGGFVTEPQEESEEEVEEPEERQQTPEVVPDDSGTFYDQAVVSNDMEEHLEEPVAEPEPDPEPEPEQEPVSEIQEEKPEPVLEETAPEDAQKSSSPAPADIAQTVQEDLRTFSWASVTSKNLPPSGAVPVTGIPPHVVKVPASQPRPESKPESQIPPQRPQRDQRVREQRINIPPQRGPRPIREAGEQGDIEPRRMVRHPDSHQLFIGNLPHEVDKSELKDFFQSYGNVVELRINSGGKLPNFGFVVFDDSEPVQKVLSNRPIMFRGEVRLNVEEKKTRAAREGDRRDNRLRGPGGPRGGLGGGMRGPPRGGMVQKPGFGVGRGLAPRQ
Method: RNA Bind-n-Seq
Molecule type: RNA
Medium: in vitro
Tested at: 200 nM
Setting: whole 134-nt RNA, ends assumed
With: 150 mM LiCl
Reference: input library
Direction: higher = stronger binding
Endpoint: log2 enrichment
Each molecule: 7-deaza-guanosine replaces G
Shared flanks, not repeated: GGGAGUUCUACAGUCCGACGAUC … UGGAAUUCUCGGGUGUCAAGG
GCAGGAAGUAAAAACAAAUGGAAAUGCUUCGGAUAGUGGCAGGGGUGGGGGUUGCAAAGGAAAGGGUGGGAUGGGAGUGGGUAAAGAGUU: 0.00514
UGACCUGCACGGACAUCAACACCCUGACAAGGCAGAAGGAACUUCUCCUGCAGAAGCUGAGCACAUUUGAGGAGACCAACCGCACCCUCC: 0.571
CUCAAGUCCUGUGCUACACAUCGUAUGUACCGAAUCGGAGGAAAAAAAGGAGGAAAGUAUUAUGUUACGCCGUUCGGAUCUGCACUUCCA: -0.407
UCAAGUCCUGUGCUACACAUCGUAUGUACCGAAUCGGGGAAGGGAAGGGAAGGGGAAAGUAUUAUGUUACGCCGUUCGGAUCUGCACUUC: -0.0634
UAACUUUAGAGGAGGAUCUGAUGGAUAUGGCAGUGGACGUGGAUUUGGGGAUGGCUAUAAUGGGUAUGGAGGAGGAGCUGGAGGUGGCAA: 0.413
AGUCCUGUGCUACACAUCGUAUGUACCGAAUCGGCCCCCGGCCCCCGGGGCCCCCGGGAAAGUAUUAUGUUACGCCGUUCGGAUCUGCAC: -1.46
AGUCCUGUGCUACACAUCGUAUGUACCGAAUCGGGAAAAAAAGGGUUUGGGAAAGGGAAAGUAUUAUGUUACGCCGUUCGGAUCUGCACU: -1.66
GAAAUUUGGUUAUGUGGAUUUUGAAUCUGCUGAAGACCUGGAGAAAGCGUUGGAACUCACUGGUUUGAAAGUCUUUGGCAAUGAAAUUAA: -3.67
AAGUCCUGUGCUACACAUCGUAUGUACCGAAUCGGAAAAAAAGGUUUUUGGUUUGGAAAGUAUUAUGUUACGCCGUUCGGAUCUGCACUU: -3.14
GCAGGAAGUAAAAACAAAUGGAAAUGCUUCGGAUAGUGGCAGGGGUGGGGGUUGCUAAGGAAAGGGUGGGAUGGGAGUGAGUAAAGAGUU: 0.0243
GCAGGAAGUAAAAACAAAUGGAAAUGCUUCGGAUAGUGGCAGGGGUGGGGGUUGCUAAGGAAAGGGUGGGAUGGGAUUGGGUAAAGAGUU: -0.303

Sample 5
Target: Histone acetyltransferase KAT6A, both winged helices, GST fusion (KAT6A, Homo sapiens, UniProt Q92794, residues 1-181)
Method: protein binding microarray
Molecule type: double-stranded DNA, one strand shown
Medium: in vitro
Tested at: not given
Setting: 8-mer, flanks averaged, mean of 2 arrays, mostly near background
Reference: not given
Direction: higher = stronger binding
Endpoint: E-score
Target sequence (chain): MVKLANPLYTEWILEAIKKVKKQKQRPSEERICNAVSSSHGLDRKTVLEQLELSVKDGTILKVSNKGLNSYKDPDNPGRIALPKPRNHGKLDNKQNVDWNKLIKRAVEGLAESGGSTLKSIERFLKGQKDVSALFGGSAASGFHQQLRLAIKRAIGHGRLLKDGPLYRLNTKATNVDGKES
TAATGCCA: -0.126
CGTGAAAA: 0.155
CAGCTGAA: -0.103
ATTCACTC: -0.0996
GCCCACAC: -0.0194
CGTGAAGC: 0.146
ACTGCCAC: -0.196
AAATGACC: -0.131
CCCTGTAG: -0.0334
GGAAAGAC: -0.025
AACGGATA: 0.279
TGAGAAAA: -0.22
CACCCCCA: -0.228
AACTTGGC: -0.209
CTGTCTCC: 0.00583
CGACGATA: 0.0517
GAGGCCCA: -0.0592
CAGAAGTC: -0.141
GATCACCA: 0.039
AGTTACTC: -0.143
TTAACAAA: 0.108
TATTTACA: -0.099

Sample 6
Target: Interferon regulatory factor 5, full length, phosphomimetic (IRF5, Homo sapiens, UniProt Q13568-2, residues 1-514, S451D/S453D/S456D/S462D)
Method: protein-binding microarray
Molecule type: double-stranded DNA, one strand shown
Medium: in vitro
Tested at: 940 nM top
Setting: 60-bp whole probe
With: salmon DNA 0.4 mg/ml
Reference: random background probes
Direction: higher = stronger binding
Endpoint: fitted relative affinity
Shared flanks, not repeated: GCCTAGCAC … GTCTTGATTCGCTTGACGCTGCTG
TTAGGTCTGCTTCTCCTTTAGTGCTAG: -0.147 z-score
TCACATTTTTTTTTTCAACTGTGCTAG: 1.77 z-score
GACCATCTCAGTTTCGAGACGTGCTAG: 4.13 z-score
TTAGGTATCGGGACTGGGATAGTGCTA: 3.78 z-score
TTGGGACTGGGTTTCGGTTAGTGCTAG: 6.89 z-score
TACATTTTCCAAATGCCCCTGTGCTAG: 0.388 z-score
TTAGATATCCTACTGCTTTAGTGCTAG: 0.172 z-score
CACTGCATCTGATTTCTCAAAGTGCTA: 0.574 z-score
GAGGATTTCGGGTATCGAGACGTGCTA: 1.1 z-score
TTAGGTATCCTTATCCTTTCGTGCTAG: 0.441 z-score
TTAGGTCCCGGTATCGGTTAGTGCTAG: 4.73 z-score
TTAGGTTTGCTTATCCTTTAGTGCTAG: -0.0976 z-score
ATGACAATGATGTTTTGAGTTGTGCTA: -0.124 z-score
GACAATATCGGGTATCGAGACGTGCTA: 0.837 z-score
TCAGTTCTGAGTCTTCCACTGTGCTAG: 0.00153 z-score
GACGATGTCGGGACTGGAGACGTGCTA: -0.572 z-score
TCAAGTATTTTTTTCCAACTGTGCTAG: 0.776 z-score
GAGGGACTGGACACTGGGGACGTGCTA: -0.53 z-score
GACGATTTCCGTCTCGAGACGTGCTAG: 0.922 z-score
TCAACTTTCCATTTCTGACTGTGCTAG: 1.25 z-score
GACGATATCAGTAGCGAGACGTGCTAG: -0.354 z-score
GACGAACTGAGTCTCGAGTCGTGCTAG: 1.87 z-score
GCATCTCGGAGATCTCGAAGCGTGCTA: 0.0977 z-score

Mixed results
PhoQ, residues 284 288 289 292 302 303 ALAMYF
fold induction (PhoP, residues 12 14 15 18 19 AQCLL (Escherichia coli, UniProt P23836); Sort-seq, item: YFP reporter; E. coli; PhoQ-PhoP variant library, with: 10 µM Mg2+; reference: high Mg2+ state, higher = stronger signaling): 3.14

Some of these lines once more (sample 6):
TTGGGACTGGGTTTCGGTTAGTGCTAG: 6.89 z-score
GCATCTCGGAGATCTCGAAGCGTGCTA: 0.0977 z-score
GACCATCTCAGTTTCGAGACGTGCTAG: 4.13 z-score
GACAATATCGGGTATCGAGACGTGCTA: 0.837 z-score
TCACATTTTTTTTTTCAACTGTGCTAG: 1.77 z-score
GAGGGACTGGACACTGGGGACGTGCTA: -0.53 z-score
TTAGGTCCCGGTATCGGTTAGTGCTAG: 4.73 z-score
TTAGGTATCGGGACTGGGATAGTGCTA: 3.78 z-score
TCAGTTCTGAGTCTTCCACTGTGCTAG: 0.00153 z-score
TTAGATATCCTACTGCTTTAGTGCTAG: 0.172 z-score
GACGATATCAGTAGCGAGACGTGCTAG: -0.354 z-score
ATGACAATGATGTTTTGAGTTGTGCTA: -0.124 z-score
TTAGGTATCCTTATCCTTTCGTGCTAG: 0.441 z-score
TACATTTTCCAAATGCCCCTGTGCTAG: 0.388 z-score
GACGATGTCGGGACTGGAGACGTGCTA: -0.572 z-score
